Results from different studies.
Each line is one published result; not all experiments were run side by side. Numbers after ± are the reported error.
Sequence of UniProt Q9Y2K6 (whole entry, looked up): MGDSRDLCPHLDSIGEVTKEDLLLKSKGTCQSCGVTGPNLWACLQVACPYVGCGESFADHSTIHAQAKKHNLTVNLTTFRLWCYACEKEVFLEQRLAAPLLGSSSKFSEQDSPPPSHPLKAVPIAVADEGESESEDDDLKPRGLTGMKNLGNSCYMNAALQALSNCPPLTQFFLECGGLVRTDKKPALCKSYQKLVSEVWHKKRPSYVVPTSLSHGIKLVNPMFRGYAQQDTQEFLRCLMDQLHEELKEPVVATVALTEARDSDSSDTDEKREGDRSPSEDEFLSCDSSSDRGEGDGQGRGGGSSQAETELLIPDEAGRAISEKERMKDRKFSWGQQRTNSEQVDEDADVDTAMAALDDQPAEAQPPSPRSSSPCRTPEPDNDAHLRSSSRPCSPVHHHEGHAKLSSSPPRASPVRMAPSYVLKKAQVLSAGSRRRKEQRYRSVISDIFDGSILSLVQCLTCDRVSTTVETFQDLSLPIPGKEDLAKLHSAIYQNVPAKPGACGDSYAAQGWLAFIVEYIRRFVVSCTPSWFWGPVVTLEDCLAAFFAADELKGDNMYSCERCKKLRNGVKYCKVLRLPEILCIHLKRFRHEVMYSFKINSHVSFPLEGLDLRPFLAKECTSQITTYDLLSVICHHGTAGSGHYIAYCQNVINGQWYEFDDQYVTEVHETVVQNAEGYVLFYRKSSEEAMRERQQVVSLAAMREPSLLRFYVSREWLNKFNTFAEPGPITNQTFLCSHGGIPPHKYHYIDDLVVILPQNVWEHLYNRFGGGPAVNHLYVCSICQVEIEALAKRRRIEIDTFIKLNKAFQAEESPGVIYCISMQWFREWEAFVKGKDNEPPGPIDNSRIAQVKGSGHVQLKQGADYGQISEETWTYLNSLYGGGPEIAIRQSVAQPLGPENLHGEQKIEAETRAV
Sequence of UniProt Q70CQ1 (whole entry, looked up): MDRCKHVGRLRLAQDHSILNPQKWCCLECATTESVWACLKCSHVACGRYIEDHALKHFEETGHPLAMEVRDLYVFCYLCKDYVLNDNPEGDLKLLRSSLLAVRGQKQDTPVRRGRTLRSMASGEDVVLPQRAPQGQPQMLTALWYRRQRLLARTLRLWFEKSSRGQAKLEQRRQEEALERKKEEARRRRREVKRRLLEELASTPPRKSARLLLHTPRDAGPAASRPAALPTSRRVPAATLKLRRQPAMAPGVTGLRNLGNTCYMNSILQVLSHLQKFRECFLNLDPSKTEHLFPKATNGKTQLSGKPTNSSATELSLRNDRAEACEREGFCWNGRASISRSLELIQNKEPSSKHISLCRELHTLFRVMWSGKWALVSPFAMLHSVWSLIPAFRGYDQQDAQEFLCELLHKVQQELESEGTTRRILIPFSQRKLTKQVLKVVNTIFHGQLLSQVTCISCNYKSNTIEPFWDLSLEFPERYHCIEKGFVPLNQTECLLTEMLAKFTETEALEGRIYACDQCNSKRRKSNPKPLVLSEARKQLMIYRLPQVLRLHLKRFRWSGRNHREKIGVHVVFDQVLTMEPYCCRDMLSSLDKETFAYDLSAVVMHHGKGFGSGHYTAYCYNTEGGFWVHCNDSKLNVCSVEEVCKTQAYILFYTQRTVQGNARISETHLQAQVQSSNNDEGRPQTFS

Structure (SMILES)	tested on	test	test system	setting	how to read	quantity	result
CNC(=O)c1c(C)oc2cc(Oc3ncnc4cc(OC)c(OC)cc34)ccc12	NLRP3 inflammasome (mouse)	–	mouse BMDM	10 µM	–	inhibition	23.8%
C[C@@H](O)CCOC(=O)C[C@@H](C)O	–	–	human	oral drink, dose not given, 240 min post dose, median, all participants	–	plasma glucagon	21 pM
C=CCn1c(=O)c2cnc(Nc3ccc(N4CCN(C)CC4)cc3)nc2n1-c1ccc2c(n1)[C@@](O)(CC)CC2	–	–	OVCAR-3 xenograft, NOD/SCID mouse	80 mg/kg once daily, :2	–	tumour growth inhibition	87.8%
N#Cc1ccn2c(-c3ccncc3)c(-c3ccc(F)cc3)nc2c1	–	kinase binding, competitor, MIB/MS competition, refers to: SCH9	Candida albicans cell lysate	100 nM	reference: DMSO	log2 fold change	-0.28
COc1ccc(-c2cncc(N[C@@H](C)c3cccc(NC(=O)c4cncc(C)c4)c3)n2)cc1OC	–	refers to: rno-miR-138-5p	rat SU5416/hypoxia model, lung	dose not given, unit not given	reference: SU5416/hypoxia vehicle	delta delta Ct	0.4
O=P(O)(O)OC[C@H]1O[C@H](OP(=O)(O)OP(=O)(O)O)[C@H](O)[C@@H]1O	–	binding, equilibrium dialysis LC-MS	–	5 µM, thermostabilized A2AR-BRIL construct	reference: no-protein control, direction not given	z-scored log2 fold change	-1.47
OC(CCN1CCCCC1)(c1ccccc1)C1CC2C=CC1C2 (stereo not shown)	–	resting-state EEG	healthy elderly humans	oral, 2 mg, eyes closed, LS mean	reference: baseline	change, Gamma EEG power, in O2-Pz	10.2%
CSCCNc1nc(SCCC(F)(F)F)nc2c1ncn2[C@@H]1O[C@H](COP(=O)(O)OP(=O)(O)C(Cl)(Cl)P(=O)(O)O)[C@@H](O)[C@H]1O	–	platelet aggregation, light transmission aggregometry	human patients, platelet-rich plasma	dose not given, 2 h, together with: TRAP 5 µM	–	patients with IPA above 80%	15.4%
c1ccc(-c2n[nH]cc2-c2ccnc3ccccc23)nc1	–	kinase binding, competitor, MIB/MS competition, refers to: MKK2	Candida albicans cell lysate	10 µM	reference: DMSO	log2 fold change	1.81
O=P(O)(O)C(Cl)(Cl)P(=O)(O)O	–	immunostaining	mouse, SAH model, hippocampal fissure	dose not given	reference: day 1 over day 7	Iba1-positive area difference	-1.52%
O=C(O)C(O)c1ccc(O)c(O)c1 (racemic)	–	binding, equilibrium dialysis LC-MS	–	5 µM, thermostabilized A2AR-BRIL construct	reference: no-protein control, direction not given	z-scored log2 fold change	-0.276
COc1cc2oc(=O)cc(C)c2cc1CCC(=O)O	Ubiquitin carboxyl-terminal hydrolase 49, ZnF-UBD domain (USP49, Homo sapiens, UniProt Q70CQ1)	–	–	–	–	Kd	86.2 µM
OC[C@H]1O[C@H](O[C@H]2[C@H](O)[C@@H](O)[C@H](O)O[C@@H]2CO)[C@H](O)[C@@H](O)[C@@H]1O	–	binding, equilibrium dialysis LC-MS	–	5 µM, thermostabilized A2AR-BRIL construct	reference: no-protein control, direction not given	z-scored log2 fold change	0.274
CC(C)NCC(O)c1ccc(O)c(O)c1 (stereo not shown)	–	–	ventricular cardiomyocytes, C57BL/6 mouse	dose not given, 0.244 s	–	sarcomere length	1.58 µm
COc1cc2cc(-c3ccc(CC(=O)Nc4cc(C(C)(C)C(F)(F)F)no4)cn3)cnc2cc1OC	–	–	human RET-altered advanced solid tumours	75 mg, phase I pooled, RECIST 1.1	–	objective response rate	25%
C[C@H](Oc1ccc(Br)cc1-c1ccon1)C(=O)O	–	muscle velocity recovery cycle	human, tibialis anterior muscle	400 mg once daily, first response latency at 30 Hz, multiple ascending dose	–	difference from placebo	-0.835%
O=C1O[C@H]([C@@H](O)CO)[C@H](O)[C@@H]1O	–	binding, equilibrium dialysis LC-MS	–	5 µM, thermostabilized A2AR-BRIL construct	reference: no-protein control, direction not given	z-scored log2 fold change	0.415
CN(C)C(=O)Oc1cccc([N+](C)(C)C)c1	–	neuromuscular block reversal	rat	dose not given, 0.5 (unit not given), together with: cisatracurium	reference: T1 twitch	train-of-four ratio	4.84
N#Cc1ccc2c(c1)[C@H]1CCCN(C(=O)c3ccc4[nH]cnc4c3)[C@H]1C2	–	refers to: LDL	human	240 mg once daily, day 28, adjusted mean, together with: metformin	reference: placebo	change from baseline	-3.12 mg/dL
OC[C@H]1O[C@H](O[C@@H]2[C@@H](O)[C@H](O)[C@@H](O)[C@H](O)[C@@H]2O)[C@H](O)[C@@H](O)[C@H]1O	–	binding, equilibrium dialysis LC-MS	–	5 µM, thermostabilized A2AR-BRIL construct	reference: no-protein control, direction not given	z-scored log2 fold change	0.0582
O=C(O)CCn1nnc(-c2ccccc2)n1	Ubiquitin carboxyl-terminal hydrolase 20, ZnF-UBD domain (USP20, Homo sapiens, UniProt Q9Y2K6)	–	–	–	–	Kd	677 µM
Cn1cc(Nc2nccc(-c3ccc4c(c3)CN(C3COC3)CC[C@H]4NC(=O)c3cn(C(C)(C)C)nn3)n2)cn1	–	refers to: Th17 Activation Pathway	splenic B cells, mouse	in vivo, 30 mg/kg, IgD-activated B cells	reference: vehicle, positive = activation	pathway activation z-score	1.94
Nc1ccn([C@@H]2O[C@H](COP(=O)(O)OP(=O)(O)O)[C@@H](O)[C@H]2O)c(=O)n1	–	binding, equilibrium dialysis LC-MS	–	5 µM, thermostabilized A2AR-BRIL construct	reference: no-protein control, direction not given	z-scored log2 fold change	-2.07
CC(c1cc2ccccc2s1)N(O)C(N)=O (stereo not shown)	–	refers to: 17-HDHA	human whole blood	3 µM, together with: Escherichia coli	–	amount	229 ± 22 pg/mL blood
CC(O)(CC(=O)O)C(=O)O (stereo not shown)	–	binding, equilibrium dialysis LC-MS	–	5 µM, thermostabilized A2AR-BRIL construct	reference: no-protein control, direction not given	z-scored log2 fold change	0.267
COc1cc2/c(=N/c3ccc(Br)cc3F)nc[nH]c2cc1OCC1CCN(C)CC1	NLRP3 inflammasome (mouse)	–	mouse BMDM	10 µM	–	inhibition	58.7%
CC(=O)N[C@@H]1[C@@H](O)[C@H](O)[C@@H](CO)O[C@@H]1O	–	binding, equilibrium dialysis LC-MS	–	5 µM, thermostabilized A2AR-BRIL construct	reference: no-protein control, direction not given	z-scored log2 fold change	0.21
NC(=O)c1cnc2[nH]ccc2c1N[C@@H]1[C@@H]2CC3C[C@H]1C[C@@](O)(C3)C2	–	flow cytometry, refers to: CD8+ memory T cells	Japanese healthy subjects, peripheral blood	oral, 10 mg twice daily, day 7	–	change from baseline	-0.32%
